Results of several laboratories.
Compare with care: the assays were run in different laboratories.

C[C@@H]1OC(=O)NN=C1c1ccc(-c2ccc(F)cc2)c(C(F)(F)F)c1 — result for “patients with TEAE”: 20% (phase I trial, refers to: platelet count decreased; human patients; dose not given, worst grade 1, all doses).
For C=CC(=O)Nc1cc(Nc2nccc(Nc3cc(Cl)c(F)cc3C(C)(C)O)n2)c(OC)cc1N1CC[C@@H](N(C)C)C1, “patients with adverse event Paronychia” read 28.4% (human; oral, dose not given, phase I clinical).
Under “patients with rash”, O=C1Nc2cc3[nH]nc(-c4ccncc4)c3cc2CN1Cc1ccccc1 is recorded as 0% (CTCAE v4.03; human, relapsed or refractory advanced solid tumours; intravenous, 4.8 mg/kg, pooled schedules).
Under “patients with serious adverse event”, C[C@]1(O)C[C@@](N)(c2ccc(-c3nc4n(c3-c3ccccc3)COc3ccncc3-4)cc2)C1 is recorded as 55.6% (human, advanced or metastatic solid tumours; dose not given, once-daily dose escalation total).
COc1ccc(-c2c(-c3ccc(C#N)c(F)c3)nc(N3CCC(N)CC3)n(C)c2=O)cc1F: “patients with serious TEAE” 0% (refers to: acute kidney injury; human patients; oral, 60 mg, dose expansion).
Under “patients with hypotension”, COc1ncnn2ccc(-c3cnc4nc(C)n(Cc5nnc([C@@H](C)F)o5)c4c3)c12 is recorded as 0% (human; oral, dose not given, grade 4).
N[C@@H]1c2ccccc2OC12CCN(c1cnc3c(N4CCCc5ncccc54)n[nH]c3n1)CC2: “patients with serious adverse event” 3.6% (refers to: thrombocytopenia; human advanced or metastatic solid tumours; oral, dose not given, phase Ia).
Cc1cn([C@H]2O[C@@H](CO[P@@](=O)(N[C@@H](C)C(=O)OC(C)C)Oc3ccccc3)[C@H](O)[C@H]2F)c(=O)[nH]c1=O — result for “patients with TEAE”: 20% (refers to: Fatigue; human; 25 mg).
For CN(C)C(=O)c1cc2cnc(Nc3ccc(N4CCNCC4)cn3)nc2n1C1CCCC1, “patients with adverse event” read 0.3% (refers to: Thrombocytopenia, AESI; human, HR+/HER2− advanced breast cancer; oral, dose not given, grade 4, CTCAE v4.03).

Some of these lines once more:
COc1ccc(-c2c(-c3ccc(C#N)c(F)c3)nc(N3CCC(N)CC3)n(C)c2=O)cc1F: “patients with serious TEAE” 0% (refers to: acute kidney injury; human patients; oral, 60 mg, dose expansion).
